{"data": "Experimental data gathered from unrelated publications", "DRD3": "D(3) dopamine receptor (DRD3, Homo sapiens, UniProt P35462)", "Melanocortin receptor 4": "Melanocortin receptor 4 (Mus musculus, UniProt P56450)", "Oprd1": "Delta-type opioid receptor (Oprd1, Rattus norvegicus, UniProt P33533)", "histidine kinase ComD": "histidine kinase ComD (Streptococcus pneumoniae serotype 4, UniProt A0A0H2US84)", "note": "Each line is one published result; not all experiments were run side by side. Numbers after ± are the reported error.", "sequence of UniProt P35462 (whole entry, looked up)": "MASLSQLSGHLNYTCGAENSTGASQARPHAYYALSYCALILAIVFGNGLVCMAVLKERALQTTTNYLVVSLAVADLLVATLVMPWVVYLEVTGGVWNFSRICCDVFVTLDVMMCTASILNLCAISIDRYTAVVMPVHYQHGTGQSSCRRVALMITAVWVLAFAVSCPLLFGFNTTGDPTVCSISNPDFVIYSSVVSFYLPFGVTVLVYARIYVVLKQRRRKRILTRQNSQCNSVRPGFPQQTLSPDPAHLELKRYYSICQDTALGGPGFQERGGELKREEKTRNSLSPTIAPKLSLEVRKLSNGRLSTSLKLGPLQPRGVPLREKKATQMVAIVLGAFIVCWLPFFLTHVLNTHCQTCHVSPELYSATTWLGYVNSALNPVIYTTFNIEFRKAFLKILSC", "sequence of UniProt P56450 (whole entry, looked up)": "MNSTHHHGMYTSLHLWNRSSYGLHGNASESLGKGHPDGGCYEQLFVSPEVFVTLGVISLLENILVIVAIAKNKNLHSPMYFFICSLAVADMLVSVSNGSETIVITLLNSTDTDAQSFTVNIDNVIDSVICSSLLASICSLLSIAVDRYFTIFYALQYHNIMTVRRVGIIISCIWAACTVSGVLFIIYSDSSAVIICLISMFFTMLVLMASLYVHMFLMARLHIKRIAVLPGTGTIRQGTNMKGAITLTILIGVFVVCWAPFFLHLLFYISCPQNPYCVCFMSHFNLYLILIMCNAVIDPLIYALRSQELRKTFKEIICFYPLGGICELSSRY", "sequence of UniProt P33533 (whole entry, looked up)": "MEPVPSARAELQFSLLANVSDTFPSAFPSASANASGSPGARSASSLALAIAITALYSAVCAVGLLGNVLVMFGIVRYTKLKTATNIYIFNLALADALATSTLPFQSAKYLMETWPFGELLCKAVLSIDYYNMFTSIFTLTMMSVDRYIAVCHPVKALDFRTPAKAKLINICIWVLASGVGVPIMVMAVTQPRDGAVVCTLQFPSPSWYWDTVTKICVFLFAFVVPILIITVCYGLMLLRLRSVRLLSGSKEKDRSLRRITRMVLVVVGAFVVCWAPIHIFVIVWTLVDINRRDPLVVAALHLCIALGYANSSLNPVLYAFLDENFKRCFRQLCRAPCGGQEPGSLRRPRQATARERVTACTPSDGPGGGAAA", "sequence of UniProt Q96NY8 (whole entry, looked up)": "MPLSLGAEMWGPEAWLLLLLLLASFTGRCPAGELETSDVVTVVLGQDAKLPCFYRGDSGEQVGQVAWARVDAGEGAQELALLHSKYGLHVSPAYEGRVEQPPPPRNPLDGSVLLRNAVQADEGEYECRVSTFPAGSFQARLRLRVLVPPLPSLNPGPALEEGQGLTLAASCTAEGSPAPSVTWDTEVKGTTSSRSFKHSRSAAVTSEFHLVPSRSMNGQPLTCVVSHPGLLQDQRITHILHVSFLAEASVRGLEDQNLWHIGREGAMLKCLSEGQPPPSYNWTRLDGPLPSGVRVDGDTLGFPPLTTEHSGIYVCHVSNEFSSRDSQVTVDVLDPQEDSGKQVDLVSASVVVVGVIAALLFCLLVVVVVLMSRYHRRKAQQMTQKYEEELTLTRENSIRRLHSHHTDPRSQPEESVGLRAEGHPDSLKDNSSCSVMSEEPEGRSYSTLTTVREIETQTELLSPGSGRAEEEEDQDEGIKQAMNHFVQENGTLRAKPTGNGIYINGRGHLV", "sequence of UniProt Q9NSD7 (whole entry, looked up)": "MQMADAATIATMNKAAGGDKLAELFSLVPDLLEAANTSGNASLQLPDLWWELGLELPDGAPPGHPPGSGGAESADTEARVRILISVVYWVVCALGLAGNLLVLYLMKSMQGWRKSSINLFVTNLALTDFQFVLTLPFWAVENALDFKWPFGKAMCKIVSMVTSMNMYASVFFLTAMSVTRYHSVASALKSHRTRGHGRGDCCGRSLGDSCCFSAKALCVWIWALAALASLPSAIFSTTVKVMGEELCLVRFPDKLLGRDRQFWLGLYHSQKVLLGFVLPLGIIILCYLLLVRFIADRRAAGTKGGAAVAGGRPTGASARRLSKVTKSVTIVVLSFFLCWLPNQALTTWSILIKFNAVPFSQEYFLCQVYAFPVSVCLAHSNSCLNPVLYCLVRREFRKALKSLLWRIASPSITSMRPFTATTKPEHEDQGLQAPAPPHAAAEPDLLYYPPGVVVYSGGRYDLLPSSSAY", "sequence of UniProt P33766 (whole entry, looked up)": "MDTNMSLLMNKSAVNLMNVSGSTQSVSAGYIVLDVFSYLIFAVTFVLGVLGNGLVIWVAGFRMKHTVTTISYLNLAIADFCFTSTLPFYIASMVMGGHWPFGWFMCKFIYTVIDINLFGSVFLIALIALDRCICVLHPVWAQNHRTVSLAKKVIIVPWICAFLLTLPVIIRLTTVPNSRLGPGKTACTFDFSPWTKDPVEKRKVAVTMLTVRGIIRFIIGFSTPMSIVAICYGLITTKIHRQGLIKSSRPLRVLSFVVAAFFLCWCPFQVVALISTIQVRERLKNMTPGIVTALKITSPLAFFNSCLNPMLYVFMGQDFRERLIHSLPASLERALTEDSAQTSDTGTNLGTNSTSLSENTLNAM", "sequence of UniProt Q9LFP6 (whole entry, looked up)": "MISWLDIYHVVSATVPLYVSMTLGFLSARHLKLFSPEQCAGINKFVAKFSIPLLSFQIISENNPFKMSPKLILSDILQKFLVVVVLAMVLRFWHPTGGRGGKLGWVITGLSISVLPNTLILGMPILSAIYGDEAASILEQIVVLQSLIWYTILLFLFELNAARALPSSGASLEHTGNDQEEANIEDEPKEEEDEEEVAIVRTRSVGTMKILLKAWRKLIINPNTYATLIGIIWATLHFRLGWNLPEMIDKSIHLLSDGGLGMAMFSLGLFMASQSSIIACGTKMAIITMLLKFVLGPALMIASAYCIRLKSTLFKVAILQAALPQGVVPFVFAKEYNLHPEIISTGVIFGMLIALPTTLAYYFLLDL", "sequence of UniProt P00747 (whole entry, looked up)": "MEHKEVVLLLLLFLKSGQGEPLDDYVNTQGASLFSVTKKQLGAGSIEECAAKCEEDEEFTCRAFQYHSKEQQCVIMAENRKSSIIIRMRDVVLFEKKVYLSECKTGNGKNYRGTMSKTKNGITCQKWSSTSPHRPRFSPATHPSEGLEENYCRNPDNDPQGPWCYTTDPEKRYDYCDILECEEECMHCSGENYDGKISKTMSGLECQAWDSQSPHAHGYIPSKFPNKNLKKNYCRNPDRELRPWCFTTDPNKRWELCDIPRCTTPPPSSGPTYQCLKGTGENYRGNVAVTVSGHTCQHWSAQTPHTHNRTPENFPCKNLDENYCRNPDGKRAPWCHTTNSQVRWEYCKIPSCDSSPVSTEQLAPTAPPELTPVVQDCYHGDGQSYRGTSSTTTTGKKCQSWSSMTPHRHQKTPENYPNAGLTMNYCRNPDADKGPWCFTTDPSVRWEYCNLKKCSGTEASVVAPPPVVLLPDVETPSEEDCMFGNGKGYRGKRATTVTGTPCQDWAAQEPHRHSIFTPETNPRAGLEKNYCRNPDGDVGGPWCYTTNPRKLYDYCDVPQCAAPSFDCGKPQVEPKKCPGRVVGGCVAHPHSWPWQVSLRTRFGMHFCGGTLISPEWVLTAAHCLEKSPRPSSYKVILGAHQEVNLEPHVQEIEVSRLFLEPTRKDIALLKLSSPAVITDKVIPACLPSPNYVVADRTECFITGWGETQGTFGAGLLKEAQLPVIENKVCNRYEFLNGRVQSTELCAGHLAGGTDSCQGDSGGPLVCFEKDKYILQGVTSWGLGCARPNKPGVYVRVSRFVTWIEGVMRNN"}
{"SMILES": "CC(C)C[C@@H]1NC(=O)[C@H](Cc2ccc(O)cc2)NC(=O)[C@H](CO)NC(=O)[C@H](C)NC(=O)[C@@H](NC(=O)[C@@H](NC(=O)[C@H](CO)NC(=O)[C@@H](N)CC(=O)O)C(C)C)CSC1=O", "target": "Accessory gene regulator protein C (Staphylococcus epidermidis, UniProt O86861)", "EC50 [nM]": 1870}
{"SMILES": "CCCN1CCO[C@@H]2c3cc(O)ccc3OC[C@H]21", "target": "DRD3", "test": "cell growth or viability, thymidine uptake", "EC50 [nM]": 0.78}
{"SMILES": "CC[C@H](C)[C@H](NC(=O)[C@H](CC(N)=O)NC(=O)[C@@H](NC(=O)[C@H](Cc1ccccc1)NC(=O)[C@H](Cc1ccccc1)NC(=O)[C@H](CCSC)NC=O)[C@@H](C)CC)C(=O)N[C@@H](CC(C)C)C(=O)N[C@H](C(=O)N[C@@H](CC(C)C)C(=O)O)[C@@H](C)O", "target": "fMet-Leu-Phe receptor (Mus musculus, UniProt P33766)", "test": "calcium mobilisation, agonist, FLIPR Fluo-4", "test system": "HEK-293T with Gα16", "EC50 [nM]": 0.6}
{"SMILES": "CC(=O)N[C@@H](CCCNC(=N)N)C(=O)N[C@@H](CCCNC(=N)N)C(=O)N[C@H](Cc1ccc(I)cc1)C(=O)N[C@@H](C(N)=O)[C@H](c1ccccc1)c1c[nH]c2ccccc12", "target": "Melanocortin receptor 4", "test": "cAMP, agonist, AlphaScreen", "EC50 [nM]": "> 100000"}
{"SMILES": "CC(C)C[C@@H]1NC(=O)[C@H](Cc2ccc(O)cc2)NC(=O)[C@H](CO)NC(=O)[C@H](C)NC(=O)[C@@H](NC(=O)[C@@H]2CCCN2C(=O)[C@H](CC(N)=O)NC(=O)[C@H](Cc2ccc(O)cc2)NC(=O)[C@H](CCCCN)NC(=O)[C@H](C)NC(=O)[C@H](C)NC(=O)[C@@H](N)CC(N)=O)CSC1=O", "target": "Accessory gene regulator protein C (Staphylococcus epidermidis, UniProt Q8VSX2)", "EC50 [nM]": 71.8}
{"SMILES": "C[C@H](N)CCc1ccccc1Cl", "target": "DRD3", "test": "phosphorylation in cells, agonist, western blot", "EC50 [nM]": 109}
{"SMILES": "CC[C@H](C)[C@@H]1NC(=O)[C@H](Cc2ccccc2)NC(=O)[C@@](C)(NC(=O)[C@H](CCCNC(=N)N)NC(=O)CNC(=O)[C@H](CO)NC(=O)[C@H](CC(C)C)NC(=O)[C@@H](N)CCCNC(=N)N)CCCC=CCCC[C@@](C)(C(=O)N[C@H](C(=O)N[C@H](C(=O)N[C@@H](Cc2ccccc2)C(=O)N[C@H](C(=O)N[C@@H](CO)C(=O)NCC(=O)NCC(=O)N[C@@H](CO)C(=O)N[C@@H](CCCNC(=N)N)C(=O)N[C@@H](Cc2c[nH]c3ccccc23)C(=O)O)[C@@H](C)O)[C@@H](C)CC)C(C)C)NC(=O)[C@H](CCCNC(=N)N)NC1=O", "target": "RXFP3 (Homo sapiens, UniProt Q9NSD7)", "test": "cAMP, agonist", "EC50 [nM]": 5.75}
{"SMILES": "CC(C)C[C@@H]1NC(=O)[C@H](Cc2ccc(O)cc2)NC(=O)[C@H](CCCNC(=N)N)NC(=O)[C@H](C(C)C)NC(=O)[C@@H]2CCCN2C(=O)[C@H](Cc2ccccc2)NC(=O)[C@H](C)NC(=O)[C@H](CC(N)=O)NC(=O)[C@H](Cc2ccc(OS(=O)(=O)F)cc2)NC(=O)[C@@H](Cc2ccccc2)NC(=O)CSC[C@@H](C(=O)NCCOCCOCC(=O)NCCOCCOCC(=O)N[C@@H](CCCCN=[N+]=[N-])C(N)=O)NC(=O)[C@H](Cc2c[nH]c3ccccc23)NC(=O)[C@H](CCCCN)NC(=O)[C@H](CCCCN)NC1=O", "target": "Nectin-4, extracellular domain (Homo sapiens, UniProt Q96NY8)", "test": "covalent labelling, in-gel fluorescence", "conditions": "4 h, 37 °C", "EC50 [nM]": "36000 ± 8000"}
{"SMILES": "Nc1ncnc2c1ncn2C1CCC(OC(C(=O)O)P(=O)(O)O)C1 (racemic)", "target": "Gag-Pol polyprotein, reverse transcriptase (gag-pol, Human immunodeficiency virus type 1 group M subtype B, UniProt P04585)", "test": "post-translocation trapping, Fe2+ footprinting", "conditions": "50% complexes post-translocated", "EC50 [nM]": "160 ± 34"}
{"SMILES": "C#CCC[C@H](NC(=O)[C@H](Cc1c[nH]c2ccccc12)NC(=O)[C@H](CCCNC(=N)N)NC(=O)[C@@H](Cc1ccccc1)NC(=O)[C@H](Cc1c[nH]cn1)NC(=O)[C@H](CCN=[N+]=[N-])NC(=O)[C@H](CCCC)NC(C)=O)C(N)=O", "target": "Melanocortin receptor 4", "test": "reporter gene, agonist", "EC50 [nM]": "~0.05"}
{"SMILES": "CCc1noc(CC)c1C(=O)O[C@H]1C(C)=C[C@]23C(=O)[C@@H](C=C(CO)[C@@H](O)[C@]12O)[C@H]1[C@@H](C[C@H]3C)C1(C)C", "target": "PRKCA (Homo sapiens, UniProt P17252)", "test": "enzyme activity, activator", "EC50 [nM]": 0.5}
{"SMILES": "CCc1cc(Cc2ccccc2)cc2c1NCCC2NC(=O)C(N)Cc1c(C)cc(O)cc1C (centres unmarked)", "target": "Oprd1", "test": "GTPγS binding, agonist, radiometric", "conditions": "cell membranes", "EC50 [nM]": 32}
{"SMILES": "CC(C)C[C@H](NC(=O)[C@H](CCC(=O)O)NC(=O)[C@H](C)NC(=O)[C@H](CCC(=O)O)NC(=O)[C@H](CCC(=O)O)NC(=O)[C@H](Cc1c[nH]cn1)NC(=O)[C@H](CCCNC(=N)N)NC(=O)[C@H](CCC(=O)O)NC(=O)[C@H](CC(N)=O)NC(=O)[C@H](CCCCN)NC(=O)[C@H](CC(C)C)NC(=O)[C@H](CCCNC(=N)N)NC(=O)[C@H](CCC(N)=O)NC(=O)[C@H](CC(C)C)NC(=O)[C@H](CCC(=O)O)NC(=O)[C@H](C)NC(=O)[C@H](CC(=O)O)NC(=O)[C@H](C)NC(=O)[C@@H](NC(=O)[C@H](CC(C)C)NC(=O)[C@H](CCCCN)NC(=O)[C@H](CCC(=O)O)NC(=O)[C@@H](N)C(C)C)[C@@H](C)O)C(=O)N[C@@H](CCC(=O)O)C(=O)N[C@@H](CCCNC(=N)N)C(=O)N[C@@H](CC(C)C)C(=O)N[C@@H](CCCCN)C(=O)N[C@@H](CO)C(=O)N[C@@H](CCC(=O)O)C(=O)N[C@@H](Cc1ccc(O)cc1)C(=O)O", "target": "Plasminogen (PLG, Homo sapiens, UniProt P00747)", "test": "plasminogen activation, chromogenic substrate S-2251", "conditions": "pH 7.4, 25 °C, chloride buffer, added: equimolar streptokinase 20 nM, Glu-plasminogen 27 nM", "EC50 [nM]": "78800 ± 11600"}
{"SMILES": "CC(N)CCc1ccccc1I (racemic)", "target": "DRD3", "test": "GTPγS binding, agonist, radiometric", "conditions": "cell membranes", "EC50 [nM]": 1320}
{"SMILES": "CC[C@H](C)[C@H](NC(=O)[C@H](CC(N)=O)NC(=O)[C@H](Cc1c[nH]cn1)NC(=O)[C@@H](NC(=O)[C@H](CCC(N)=O)NC(=O)[C@H](CCCNC(=N)N)NC(=O)[C@@H](NC(=O)[C@@H](N)CCC(=O)O)[C@@H](C)CC)[C@@H](C)O)C(=O)N[C@@H](Cc1ccccc1)C(=O)N[C@@H](CC(=O)O)C(=O)N[C@@H](CC(N)=O)C(=O)N[C@@H](Cc1ccccc1)C(=O)N[C@@H](Cc1ccccc1)C(=O)N[C@@H](CCCCN)C(=O)N[C@@H](CCCNC(=N)N)C(=O)N[C@@H](CCCNC(=N)N)C(=O)O", "target": "histidine kinase ComD", "test": "reporter gene, agonist", "test system": "Streptococcus pneumoniae, TIGR4 comX::lacZ", "conditions": "30 min, pH 7.3, 37 °C", "EC50 [nM]": "> 1000"}
{"SMILES": "O=C(O)COc1ccc(Cl)cc1", "target": "PIN8 (Arabidopsis thaliana, UniProt Q9LFP6)", "test": "transport current, substrate, SSM electrophysiology", "test system": "proteoliposomes", "EC50 [nM]": "800000 ± 176000"}
{"SMILES": "CC(C)C[C@@H]1NC(=O)[C@H](Cc2ccc(O)cc2)NC(=O)[C@H](CO)NC(=O)[C@H](C)NC(=O)[C@@H](NC(=O)[C@@H](NC(=O)[C@H](CC(N)=O)NC(=O)[C@H](Cc2ccc(O)cc2)NC(=O)[C@@H](N)CCCCN)C(C)C)CSC1=O", "target": "Accessory gene regulator protein C (Staphylococcus epidermidis, UniProt Q8VSX2)", "EC50 [nM]": "> 2000"}
{"SMILES": "CC[C@H](C)[C@H](NC(=O)[C@H](Cc1ccccc1)NC(=O)[C@H](Cc1c[nH]cn1)NC(=O)[C@@H](NC(=O)[C@H](CC(C)C)NC(=O)[C@H](CCCNC(=N)N)NC(=O)[C@@H](NC(=O)[C@@H](N)CCC(=O)O)[C@@H](C)CC)[C@@H](C)O)C(=O)N[C@@H](Cc1ccccc1)C(=O)N[C@@H](Cc1ccccc1)C(=O)N[C@@H](Cc1ccccc1)C(=O)N[C@@H](Cc1ccccc1)C(=O)N[C@@H](Cc1ccccc1)C(=O)N[C@@H](CCCCN)C(=O)N[C@@H](CCCNC(=N)N)C(=O)N[C@@H](CCCNC(=N)N)C(=O)O", "target": "histidine kinase ComD", "test": "reporter gene, agonist", "test system": "Streptococcus pneumoniae, TIGR4 comX::lacZ", "conditions": "30 min, pH 7.3, 37 °C", "EC50 [nM]": "> 10000"}
{"SMILES": "Cc1cc(O)cc(C)c1CC(N)C(=O)NC1CCNc2c1cc(Cc1ccccc1)cc2C(C)(C)C (centres unmarked)", "target": "Oprd1", "test": "GTPγS binding, agonist, radiometric", "conditions": "cell membranes", "EC50 [nM]": 240}
{"SMILES": "Nc1ncnc2c1ncn2C1OC(COP(=O)(O)OP(=O)(O)OCC2OC(O)C(O)C2O)C(O)C1O (centres unmarked)", "target": "TRPM2 (Nematostella vectensis, UniProt A7T1N0, T179A)", "test": "channel activation, agonist, inside-out patch clamp", "conditions": "T179A, 2.5 µM PIP2, added: 125 µM Ca2+", "EC50 [nM]": "14000 ± 1000"}
{"note": "Repeated from above:"}
{"SMILES": "CC(C)C[C@@H]1NC(=O)[C@H](Cc2ccc(O)cc2)NC(=O)[C@H](CCCNC(=N)N)NC(=O)[C@H](C(C)C)NC(=O)[C@@H]2CCCN2C(=O)[C@H](Cc2ccccc2)NC(=O)[C@H](C)NC(=O)[C@H](CC(N)=O)NC(=O)[C@H](Cc2ccc(OS(=O)(=O)F)cc2)NC(=O)[C@@H](Cc2ccccc2)NC(=O)CSC[C@@H](C(=O)NCCOCCOCC(=O)NCCOCCOCC(=O)N[C@@H](CCCCN=[N+]=[N-])C(N)=O)NC(=O)[C@H](Cc2c[nH]c3ccccc23)NC(=O)[C@H](CCCCN)NC(=O)[C@H](CCCCN)NC1=O", "target": "Nectin-4, extracellular domain (Homo sapiens, UniProt Q96NY8)", "test": "covalent labelling, in-gel fluorescence", "conditions": "4 h, 37 °C", "EC50 [nM]": "36000 ± 8000"}
{"SMILES": "CC(C)C[C@H](NC(=O)[C@H](CCC(=O)O)NC(=O)[C@H](C)NC(=O)[C@H](CCC(=O)O)NC(=O)[C@H](CCC(=O)O)NC(=O)[C@H](Cc1c[nH]cn1)NC(=O)[C@H](CCCNC(=N)N)NC(=O)[C@H](CCC(=O)O)NC(=O)[C@H](CC(N)=O)NC(=O)[C@H](CCCCN)NC(=O)[C@H](CC(C)C)NC(=O)[C@H](CCCNC(=N)N)NC(=O)[C@H](CCC(N)=O)NC(=O)[C@H](CC(C)C)NC(=O)[C@H](CCC(=O)O)NC(=O)[C@H](C)NC(=O)[C@H](CC(=O)O)NC(=O)[C@H](C)NC(=O)[C@@H](NC(=O)[C@H](CC(C)C)NC(=O)[C@H](CCCCN)NC(=O)[C@H](CCC(=O)O)NC(=O)[C@@H](N)C(C)C)[C@@H](C)O)C(=O)N[C@@H](CCC(=O)O)C(=O)N[C@@H](CCCNC(=N)N)C(=O)N[C@@H](CC(C)C)C(=O)N[C@@H](CCCCN)C(=O)N[C@@H](CO)C(=O)N[C@@H](CCC(=O)O)C(=O)N[C@@H](Cc1ccc(O)cc1)C(=O)O", "target": "Plasminogen (PLG, Homo sapiens, UniProt P00747)", "test": "plasminogen activation, chromogenic substrate S-2251", "conditions": "pH 7.4, 25 °C, chloride buffer, added: equimolar streptokinase 20 nM, Glu-plasminogen 27 nM", "EC50 [nM]": "78800 ± 11600"}
